Experimental data from different studies.
Lines come from different studies, so protocols differ. Numbers after ± are the reported error.
B1: ovalbumin; sequence looked up; chain GSIGAASMEFCFDVFKELKVHHANENIFYCPIAIMSALAMVYLGAKDSTRTQINKVVRFDKLPGFGDSIEAQCGTSVNVHSSLRDILNQITKPNDVYSFSLASRLYAEERYPILPEYLQCVKELYRGGLEPINFQTAADQARELINSWVESQTNGIIRNVLQPSSVDSQTAMVLVNAIVFKGLWEKAFKDEDTQAMPFRVTEQESKPVQMMYQIGLFRVASMASEKMKILELPFASGTMSMLVLLPDEVSGLEQLESIINFEKLTEWTSSNVMEERKIKVYLPRMKMEEKYNLTSVLMAMGITDVFSSSANLSGISSAESLKISQAVHAAHAEINEAGREVVGSAEAGVDAASVSEEFRADHPFLFCIKHIATNAVLFFGRCVSP
B2: 6-pyruvoyl tetrahydropterin synthase (human); sequence looked up; chain MSTEGGGRRCQAQVSRRISFSASHRLYSKFLSDEENLKLFGKCNNPNGHGHNYKVVVTVHGEIDPATGMVMNLADLKKYMEEAIMQPLDHKNLDMDVPYFADVVSTTENVAVYIWDNLQKVLPVGVLYKVKVYETDNNIVVYKGE
UniProt P29055, sequence (whole entry, looked up): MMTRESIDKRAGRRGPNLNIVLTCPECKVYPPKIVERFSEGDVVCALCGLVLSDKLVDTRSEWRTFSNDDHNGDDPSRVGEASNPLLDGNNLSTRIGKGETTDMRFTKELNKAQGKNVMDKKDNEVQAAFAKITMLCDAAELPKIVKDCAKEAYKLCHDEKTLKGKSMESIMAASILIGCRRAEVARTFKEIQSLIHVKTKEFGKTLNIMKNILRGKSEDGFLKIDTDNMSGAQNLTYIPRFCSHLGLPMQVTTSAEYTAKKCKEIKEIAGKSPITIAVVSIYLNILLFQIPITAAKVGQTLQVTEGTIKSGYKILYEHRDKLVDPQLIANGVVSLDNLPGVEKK

Molecule	target or system	test	system	conditions	how to read	endpoint	result
semaglutide			Wistar rat, male, diet-induced obese, blood, fasted	subcutaneous, dose not given, after 10 weeks treatment		serum AST	138 ± 18 U/L
human ME2 T60S		enzyme activity, substrate	recombinant enzyme	pH 7.4, with: no fumarate		K0.5	11.4 ± 0.41 mM
insulin aspart		ELISA, item: total insulin aspart	human, type 1 diabetes, serum	subcutaneous, least squares mean, single dose		tmax	1.08 h
GAAGCGAGTACGGAGGTACCAGCTGGTCTCCGTAGTCAAGTCAATCGGTCC (dsDNA; 5'-amino-C6 primer)	SUA7 full length assumed (Saccharomyces cerevisiae, UniProt P29055)	array	double-stranded DNA, one strand shown	TFIIB alone		Kd	2.1 ± 0.43 nM
human ME2 E59N		enzyme activity, substrate	recombinant enzyme	pH 7.4, with: no fumarate		K0.5	19 ± 2.77 mM
rituximab			relapsed iNHL patients	dose not given, before fourth infusion		serum concentration	174 µg/mL
durvalumab			human, plasma	intravenous, 1500 mg, cycle 4 day 1, geometric mean, with: adavosertib 175 mg twice daily		Cmax	379 µg/mL
human ME2 R67A		enzyme activity, substrate	recombinant enzyme	pH 7.4, with: fumarate 3 mM		K0.5	0.98 ± 0.11 mM
ACEQNPIYWARYADWLFTTPLLLLDLALLVDADEGT		ex vivo fluorescence imaging	peptide, BALB/c mice, 4T1 tumour-bearing, 4T1 tumour	intravenous, 5 nmol, 48 h post-injection	higher = more uptake	mean fluorescence intensity	1000 ± 130 a.u.
KRRRC	HUVEC	ICP-OES, item: rhenium	peptide	24 h	baseline: loaded	cellular uptake	8.85%
insulin icodec			human, severe renal impairment, serum	subcutaneous, 1.5 U/kg single dose, one outlier excluded	baseline: normal renal function	AUC(0-inf) increase	28%
insulin degludec			human	subcutaneous, 0.4 IU/kg, 1 FC level, single dose, reference formulation		AUC0−12	171 ± 35 ng·h/mL
11-deoxycorticosterone	CYP11B2 (human)	substrate binding, stopped-flow global kinetic fitting	purified enzyme	model, linear, 4 state, CS-IF, with: 40-fold excess adrenodoxin		Kd	3460 nM
Teicoplanin		item: stability	human serum	1 days, room temperature, high QC		recovery	99.5%
B1 (ovalbumin)		IVIS, DyLight 755-labelled	SKH1-Elite mice	subcutaneous, injection volume 50 µL		time to 75% release from injection site	≤ 2 days
colistin	Pseudomonas aeruginosa	broth microdilution	clinical isolate RKI-No_578/15			MIC	2 µg/mL
FGA (Homo sapiens, UniProt P02671)	PDE4DIP (Homo sapiens, UniProt Q5VU43)	cross-linking MS		with: DSSO		cross-linked residues	K440 to K504
ACEEQNPWARYLEWLFPTETLLLEL		ex vivo fluorescence imaging	peptide, BALB/c mice, 4T1 tumour-bearing, 4T1 tumour	intravenous, 5 nmol, 2 h post-injection	higher = more uptake	mean fluorescence intensity	3270 ± 690 a.u.

Molecule	target or system	test	system	conditions	how to read	endpoint	result
human ME2 I58F		enzyme activity, substrate	recombinant enzyme	pH 7.4, with: fumarate 3 mM		K0.5	2.47 ± 0.18 mM
insulin		LC-MS/MS	spiked human serum	4 h, room temperature		concentration	0.0101 µg/mL
insulin			gestational diabetes women	dose not given, treated arm		adverse event incidence	16%
ACDDQNPWRAYLDLLFPTDTLLLDLLW		ex vivo fluorescence imaging	peptide, BALB/c mice, 4T1 tumour-bearing, muscle	intravenous, 5 nmol, 48 h post-injection	higher = more uptake	mean fluorescence intensity	201 ± 13.3 a.u.
Malic enzyme 2 S106K (human)		enzyme activity, substrate	recombinant enzyme	pH 7.4, with: no fumarate		K0.5	10.9 ± 0.3 mM
Neuropeptide Y		RP-HPLC	HALO Peptide ES-C18 column	25 µM, acetic acid/acetonitrile, 10 min gradient		retention time	6.06 min
B2	PP6C (human)	co-immunoprecipitation, IP-MS	CYB5R4 knockout cells	concentration not given	baseline: CYB5R4 knockout over parental	log2 fold change	-1.93
insulin icodec			Japanese patients with type 1 diabetes	log AUCτ vs log dose		dose-proportionality slope	1.17
human ME2 P78D		enzyme activity, substrate	recombinant enzyme	pH 7.4, with: no fumarate		K0.5	11.4 ± 0.37 mM
Peginesatide	UT7/EPO	tyrosine phosphorylation, LC-MS/MS phosphoproteomics, trypsin, item: JAK2 tyrosine 570		10 nM, 15 min, with: 10 U/mL EPO	baseline: vehicle	phosphorylation level	6 fold
human CCT1	PP6C (human)	co-immunoprecipitation, IP-MS	CYB5R4 knockout cells	concentration not given	baseline: CYB5R4 knockout over parental	log2 fold change	-0.21
insulin aspart			human, type 1 diabetes, plasma	subcutaneous, 0.3 U/kg, geometric mean		insulin AUC(0-4h)	12400 pg·h/mL
adrenomedullin		RP-HPLC	HALO Phenyl-hexyl column	25 µM, formic acid/acetonitrile, 10 min gradient		retention time	3.75 min
human ME2 Q51H		enzyme activity, substrate	recombinant enzyme	pH 7.4, with: no fumarate		K0.5	6.31 ± 0.27 mM
pegcetacoplan		item: eye disorders	patients with PNH	dose not given, phase Ib trial		number of TEAEs	7
Malic enzyme 2 S121Q (human)		enzyme activity, substrate	recombinant enzyme	pH 7.4, with: no fumarate		K0.5	9.44 ± 0.31 mM
insulin icodec			Chinese type 2 diabetes patients	subcutaneous	baseline: steady state over first dose	accumulation ratio for AUC	2.29

A few entries again:
Molecule	target or system	test	system	conditions	how to read	endpoint	result
KRRRC	HUVEC	ICP-OES, item: rhenium	peptide	24 h	baseline: loaded	cellular uptake	8.85%
B1 (ovalbumin)		IVIS, DyLight 755-labelled	SKH1-Elite mice	subcutaneous, injection volume 50 µL		time to 75% release from injection site	≤ 2 days
insulin degludec			human	subcutaneous, 0.4 IU/kg, 1 FC level, single dose, reference formulation		AUC0−12	171 ± 35 ng·h/mL
Neuropeptide Y		RP-HPLC	HALO Peptide ES-C18 column	25 µM, acetic acid/acetonitrile, 10 min gradient		retention time	6.06 min
